Published values pooled from the literature.
Compare with care: the assays were run in different laboratories. Values joined by “and” are separate records of one study, mostly repeats; a detail may differ. ± gives the spread as reported.

SMILES	cell line	test	system	setting	how to read	endpoint	result
CC/C(=N\NC(=O)NCc1cccc(O)c1)c1ccc(O)c(C)c1O	SK-OV-3	Western blot	2D culture	5 µM, 1 h, unit not given	baseline: β-actin	YAP protein level	1.19 ± 0.23
CSc1cc(Oc2ccnc3[nH]c(=O)cnc23)ccc1NC(=O)Nc1cc(C(C)(C)C)nn1-c1ccccc1	patient-derived cell line clone A	RPPA	–	1 µM, 4 h	baseline: DMSO	phospho-Met/total Met ratio	0.8
C[C@H](Nc1ccc2c(c1)OCCn1cc(N3C(=O)OC[C@H]3C(F)F)nc1-2)C(N)=O	NCI-H1563	cell growth, CellTiter-Glo	–	120 h	–	Hill coefficient GR curve	0.693
CC(=O)Nc1cccc(-n2c(=O)n(C3CC3)c(=O)c3c(Nc4ccc(I)cc4F)n(C)c(=O)c(C)c32)c1	MeWo (NF1)	cell viability, resazurin	–	6.25 nM, 72 h	baseline: DMSO	fractional effect	0.399 and 0.207
CCCCN1CCN(c2ccc3nc(-c4ccc5nc(-c6cc(OC)ccc6OC)[nH]c5c4)[nH]c3c2)CC1	SR	SRB	–	10 µM, 48 h	–	growth percent	72.5%
C=CC1=C(C)c2cc3[n-]c(cc4nc(cc5[n-]c(cc1n2)c(C)c5C=C)C(C)=C4CCC(=O)O)c(CCC(=O)O)c3C.[Zn+2]	SH-SY5Y	RNA-seq, refers to: SPRY1 mRNA	–	5 µM, 5 h	baseline: untreated cells	fold change	2.78
Cl.Cl.NCCNS(=O)(=O)c1ccc(Cl)c2ccncc12	SK-OV-3	ATP	–	10 µM, 4 days, 3D U-bottom low-attachment	baseline: untreated	relative cell number	114%
CCn1cc(-c2cc(Cn3ccoc3=N)cc3c2CCN([C@@H](C)c2cc(OC)ccn2)C3=O)c(C(F)(F)F)n1	Pfeiffer	cell growth	–	120 h	–	EC50	647 nM
Cc1nc(CSc2nsc(/C=C/N(C)C)c2C#N)cs1	LDR	silenced CMV-GFP reporter derepression, qHTS	–	–	–	efficacy	129%
Cc1cccc(-c2[nH]c(CNc3ccccc3F)nc2-c2ccc3ncnn3c2)n1	MM1.S	XTT	–	0.6 µM	–	viability	95% and 82% and 68%
CCCCOC(=O)Cn1c2ccc(OC)cc2c2nc3ccccc3nc21	LDR	silenced CMV-GFP reporter derepression, qHTS	–	–	–	efficacy	50%
Clc1nc(NCc2ccco2)c2[nH]cnc2n1	iPSC-derived cardiomyocytes	RNA-seq, refers to: ANKRD10 chr13 exon ending 110900661	–	unit not given	baseline: DMSO minus compound	ΔPSI	-0.206
C[C@H]1[C@H](OC(=O)CCC(=O)O)O[C@@H]2O[C@@]3(C)CC[C@H]4[C@H](C)CC[C@@H]1[C@@]24OO3	human primary cardiac fibroblasts	–	–	5 µM, with: TGF-β1 5 ng/mL	–	collagen gel contraction	decreased
Cc1nc(N(Cc2ccccc2)c2ccc3c(c2)/C(=C/c2ccccc2)C(=O)N3Cc2ccccc2)c2ccccc2n1 (mixture of isomers)	LLC	–	–	0.5 µM, 24 h	–	wound healing rate	43.5%
Cc1ccc(/C=[N+](\[O-])c2ccc(N(C)C)cc2)c2nsnc12	LDR	silenced CMV-GFP reporter derepression, qHTS	–	–	–	efficacy	34%
COc1cc(/C=C/C(=O)N2CCC=CC2=O)cc(OC)c1OC	MDA-MB-468	qRT-PCR, refers to: PARK7	–	30 µM, 6 h	baseline: time zero	mRNA level	83.9 ± 5.4%
Cc1nn(-c2nc3ccc(Cl)c(Cl)c3[nH]2)c(O)c1C1OC(=O)c2ccccc21 (stereo not shown)	RAW-ISG	RT-qPCR, refers to: IFNB1	–	10 µM, unit not given, with: poly(I:C)	baseline: vehicle	mRNA level	0.697
O=P1(C2CCCCC2)CCCCC1	SW480	MTT	–	72 h	baseline: IC50 HaCaT over IC50 SW480	selectivity index	19.6
Cn1cc(Nc2nccc(-c3ccc4c(c3)CN(C3COC3)CC[C@H]4NC(=O)c3cn(C(C)(C)C)nn3)n2)cn1	mouse splenic B cells	refers to: Ceramide signalling	–	30 mg/kg, IgD-activated in vivo	baseline: vehicle, direction not given	pathway activation z-score	-0.258
CCCCCCCCCCCCCCCC(NCc1ccccc1O)=C1C(=O)OC(CO)C1=O (stereo not shown)	G2-synchronized tsFT210 cells	flow cytometry	–	50 µM, 4 h, 32 °C, release from G2 arrest	–	G2/M phase cells	60.7%
O=C(/C=C/C=C/C=C/C1CCCCC1)NC1=C[C@@](O)(/C=C/C=C/C=C/C(=O)NC2=C(O)CCC2=O)[C@@H]2O[C@@H]2C1=O	HEC-251	cell growth, CellTiter-Glo	–	78 h	–	GI50	21800 nM
COc1cc2ncnc(Nc3ccc(Oc4ccccc4)cc3C)c2cc1OC	MeWo (NF1)	resazurin	–	3 µM, 72 h, with: trametinib 0 nM	–	viability	82.9%
CCCCN1C[C@H](O)[C@@H](O)[C@@H](O)[C@H]1CO	sample E patient fibroblasts	Gb3 level lowering, LC-MS/MS, refers to: Gb3 d18:1/16:0	–	216 h	–	IC50	34200 nM

SMILES	cell line	test	system	setting	how to read	endpoint	result
COc1ccnc(CSC(N)=Nc2ccccc2OC)c1.Cl	LDR	silenced CMV-GFP reporter derepression, qHTS	–	–	–	efficacy	120%
CN(C)c1ccccc1/C=C1\SC(N2CCCCC2)=NC1=O	NG108-cl	clomeleon fluorescence, refers to: intracellular chloride reduction	–	5 h	–	EC50	inactive
O=S(=O)(NNc1nnc(Cl)c2ccccc12)c1ccc(F)cc1	Vero	MTT	–	125 µg/mL	–	cytotoxicity	47.3%
c1ccc2[nH]ccc2c1	HCT-8	RNA-seq, refers to: DNAJB9	–	concentration not given	–	mRNA level, LS mean	29.1 counts per million
C[C@H]1[C@@H](O)O[C@@H]2O[C@@]3(C)CC[C@H]4[C@H](C)CC[C@@H]1[C@@]24OO3	THP-1	annexin V/PI flow cytometry, refers to: annexin V+/PI-	–	1.6 µM, 24 h	–	early apoptotic cells	2.8%
CC(C)C[C@@H](C=O)NC(=O)[C@H](CC(C)C)NC(=O)[C@H](CC(C)C)NC(=O)OCc1ccccc1	LDR	silenced CMV-GFP reporter derepression, qHTS	–	–	–	Emax	171%
CCCCc1nc(Cl)c(CO)n1Cc1ccc(-c2ccccc2-c2nn[nH]n2)cc1	human PBMC	RNA-seq, refers to: CHST13 mRNA	–	10 µg/mL, 24 h	baseline: untreated control	log2 fold change	-3.77
CC(C)C[C@H](NC(=O)N1CCCCCC1)C(=O)N[C@H](Cc1cn(C)c2ccccc12)C(=O)N[C@H](Cc1ccc(O)cc1)C(=O)O	22Rv1 intact cells, vector	radioligand binding	–	–	–	Kd	0.121 nM
Cc1cc(Nc2ncc(Cl)c(Nc3ccccc3S(=O)(=O)C(C)C)n2)c(OC(C)C)cc1C1CCNCC1	CLB-BAR	phosphoproteomics LC-MS/MS, refers to: ERF phosphorylation	–	0.2 µM, 1 h	baseline: untreated	log2 fold change	-4.45
CC(C)NCC(O)c1ccc(O)c(O)c1 (stereo not shown)	mouse ventricular cardiomyocytes	–	–	dose not given, 0.063 s	–	sarcomere length	1.8 µm
O=S(=O)(NCCNC/C=C/c1ccc(Br)cc1)c1cccc2cnccc12	Neuro2a	inhibitor, western blot	–	concentration not given, with: BRP 100 µg/mL	–	CREB phosphorylation Ser133	inhibited
COc1cnc2cccc(N3CCc4c(cc(Cn5ccnc5C)cc4-c4cn(C)nc4C(F)(F)F)C3=O)c2c1	KLM1	cell growth, inhibitor	–	120 h	–	EC50	> 30000 nM
Cn1cc(C2=C(c3ccc(Cl)cc3Cl)C(=O)NC2=O)c2ccccc21	primary human cortical neurons	Western blot	–	5 µM, 48 h, with: HIV Tat 100 ng/mL and maraviroc 2.5 µM	baseline: Tat-treated cells, increase	NeuN protein level	2.94 fold
CC(C)(C)c1nc(-c2cccc(NS(=O)(=O)c3c(F)cccc3F)c2F)c(-c2ccnc(N)n2)s1	SK-MEL-239 C4 (p61 BRAF V600E)	ERK phosphorylation, Western blot	–	1 h	–	IC75	731 nM
C=Cc1c2[n-]c(c1C)/C=c1\[n-]/c(c(C)c1C=C)=C\c1[n-]c(c(CCC(=O)O)c1C)/C=c1\[n-]c(c(C)c1CCC(=O)O)=C2.[Sn+4]	SH-SY5Y	RNA-seq, refers to: SGK1 mRNA	–	5 µM, 5 h	baseline: untreated cells	fold change	1.67
Cc1cnc2ccc3c(c2n1)N1CCC(O)N=C1N3C (stereo not shown)	BALB/c 3T3	–	–	10 µM	baseline: solvent control	relative colony forming efficiency	0%
Cn1cc(-c2ccc(-c3cncc(Cl)c3N3CCC4(CCNC4=O)CC3)cc2)cn1	COLO 205	gene expression, microarray, refers to: HIF1A mRNA	–	concentration not given, 2 h	baseline: untreated cells	log2 fold change	-1.05
CCn1cc(-c2cc(Cn3ccnc3)cc3c2CCN([C@H](c2cc(OC)ccn2)C2CC2)C3=O)c(C(F)(F)F)n1	HEC-251	cell growth, inhibitor	–	120 h	–	EC50	968 nM
COc1ccc(-n2nc(C(C)=O)s/c2=N\N=C(/C)c2ccc(NC(=O)c3ccc(C)cc3)cc2)cc1	MCF7	–	–	0.625 µM	–	viability	8.19%
CC(=O)N[C@@H](CSC(=O)[C@]1([C@@H](O)C(C)C)NC(=O)[C@H](C)[C@@H]1O)C(=O)O	LDR	silenced CMV-GFP reporter derepression, qHTS	–	–	–	Emax	52%
COc1ccc2c(N(C)c3ccc(/C(C)=N/OCCN)cc3)c3c(Cl)coc3nc2c1	RWPE-1	trypan blue exclusion	–	1 µM, 72 h	–	growth inhibition	55%
CCCCS(=N)(=O)CCC(N)C(=O)O (stereo not shown)	OVCAR-5	LC-ESI-MS/MS, refers to: glutathione	–	20 µM, 24 h	baseline: untreated	remaining GSH	0.3%
Nc1ncnc2c1ncn2[C@@H]1O[C@H](CO)[C@@H](O)[C@H]1O	activated human T cells	–	–	10 µM	higher = more proliferation	T cell proliferation	41 a.u. and 54.1 a.u. and 40.3 a.u.

Repeated from above:
SMILES	cell line	test	system	setting	how to read	endpoint	result
C[C@H]1[C@@H](O)O[C@@H]2O[C@@]3(C)CC[C@H]4[C@H](C)CC[C@@H]1[C@@]24OO3	THP-1	annexin V/PI flow cytometry, refers to: annexin V+/PI-	–	1.6 µM, 24 h	–	early apoptotic cells	2.8%
CC(C)C[C@H](NC(=O)N1CCCCCC1)C(=O)N[C@H](Cc1cn(C)c2ccccc12)C(=O)N[C@H](Cc1ccc(O)cc1)C(=O)O	22Rv1 intact cells, vector	radioligand binding	–	–	–	Kd	0.121 nM
Cn1cc(-c2ccc(-c3cncc(Cl)c3N3CCC4(CCNC4=O)CC3)cc2)cn1	COLO 205	gene expression, microarray, refers to: HIF1A mRNA	–	concentration not given, 2 h	baseline: untreated cells	log2 fold change	-1.05
